Results of several laboratories.
Parts stem from different laboratories: compare values within a part only. Changes are numbered by the printed parent chain.

Sample 1
Target: RNA binding protein fox-1 homolog 2, RRM domain, GST-SBP tag (RBFOX2, Homo sapiens, UniProt O43251-10, residues 100-194)
Technique: RNA Bind-n-Seq
Form: RNA
Matrix: in vitro
Concentration: 365 nM
Notes: natural RNA segment, single round, ends assumed
Baseline: no-protein control
Reading: higher = stronger binding
Constant ends, left off below: GGGAGUUCUACAGUCCGACGAUC … UGGAAUUCUCGGGUGCCAA
Construct (chain): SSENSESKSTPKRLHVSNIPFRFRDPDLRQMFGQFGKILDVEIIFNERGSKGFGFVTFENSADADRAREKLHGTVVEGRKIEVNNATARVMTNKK
| Oligonucleotide | RBNS enrichment (R) |
| --- | --- |
| CAUAGCAUCCAAUGAUUUUUUGGUGUCUGGCUAUGAAUACUAUGGUUGAGAAUUGUAUUCAGUGAUUGUUUCUGCACACUUUUCAAAUAAAAAAUGAAUUUUUAUCAAUU | 1.16 |
| UUAAUAUACUUUCGUUCCAUGGUGUGCAGGUUUUCUUUUACUUCAGUGUUAUGAUCUCUUCCAGCUGUGCUCCAGUAGGGCGGAGAGCCUCGCACGUGCACCAGACCCCA | 0.527 |
| UAUAAAUCCCACCCCCAGAGUGGGGAGGGUCAGGUGCCAGACCUGGACUAAACUGCACCAAGGAAACACCCAGCAGGGUCUCCUGUGAGCCGGGGACCAUGCAGCCCGAA | 0.739 |
| UGUUAAGUCUUUGGAUCUAUACUUAACUGAUGACCUAGAAGAGCGAUUCUCAAAAGUGUGAGUCCUGGACCAGCAGCAACAGCAUCACCGGGAACUUGUUAGAAAUGCAC | 0.723 |
| CUUCCAUGACUAAUUUCUAAUUGUAACUCAACACACAUUGAGGUAUGGGCCCUCCUCAGUGACUUUAACUAGCUCAGAAACGUACUCCCCCACCAACCCCACCUCACCGC | 0.796 |
| GACGGGAGGUGGCUGCAGGAAGAGGAUGCCUCAGGGAUGCCGGACAUUUCCGUGUUCUAUUCCAGAGUGUUCUCUUCUCCCAGAGAACACUGGAACGUCCUCACAGGGAU | 0.55 |
| AUGCUGCUCAGCUUGCAGUCAUGCAGGGAGCCAACGUCCUCGUAACUCAGCGGAAGGGGAACUUCUUCAUGGGUGGUUCAGAUGGUGGCUACACCAUCUGGUGAGGAACC | 0.223 |
| ACAGAAUUCUUUCACACUUUUGCAGAAAUGUGUAUAUUUAAUGCUGUGCGACUGCUAAACUGCAGGUUUUUGUUGAAGGAACUAAAAGCAACUAGUUCACUCAUAGUCUA | 0.31 |
| CUCCUACCAAGCAGGAGGCCAGGAACUUCUUUGGACUUGGAAGGUGUGCGGGGACUGGCCGAGGCCCCUGCACCCUGCGCAUCAGGACUGCUUCAUCGUCUUGGCUGAGA | 0.497 |
| CGGGAAGCAGCCGCGGGGAGGUAAUGAAUUGUCUGUGGUAUCAUGUCAGCAGAGUCUCCAAGCCCCACGAACCCUGAGGAGUGGAGUCAUACGCGAAGGCCAUAUGGCCA | 0.56 |
| UAAAUGACUAUUUAUUCUUCUGCCCCCCUCUAGAGCACUCUUCUUGGCCAGACCCUCUGUCCAAGGCUCAUUAGAAGGCUGGGGUUGUGUUCAGGUGACAGACUUUAUCA | 0.315 |
| UAGUGCCAGAUUACUAUUGGUGGCGUUUAAGAUGAAAGCAAGUUCAAAAUUUGUCAUUUUGGGUGUCAACAGCUAAAUGGUCUGGUUUUUACCCCUGUUUUGCCUUUUUU | 0.363 |

Sample 2
Target: ABI1, truncated, D143A, DHFR fusion (Arabidopsis thaliana)
Technique: DHFR PCA, deep sequencing
Matrix: yeast
Notes: methotrexate growth selection, single substitutions
Together with: (+)-ABA 58 µM
Baseline: wild-type fitted maximum
Reading: higher = stronger binding
Parent: PYL1, truncated, DHFR fusion (Arabidopsis thaliana); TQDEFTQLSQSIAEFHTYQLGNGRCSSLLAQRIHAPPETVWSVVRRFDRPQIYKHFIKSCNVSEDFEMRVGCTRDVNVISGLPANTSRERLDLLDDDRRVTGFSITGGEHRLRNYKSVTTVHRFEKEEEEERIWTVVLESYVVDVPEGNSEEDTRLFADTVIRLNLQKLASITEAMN; partner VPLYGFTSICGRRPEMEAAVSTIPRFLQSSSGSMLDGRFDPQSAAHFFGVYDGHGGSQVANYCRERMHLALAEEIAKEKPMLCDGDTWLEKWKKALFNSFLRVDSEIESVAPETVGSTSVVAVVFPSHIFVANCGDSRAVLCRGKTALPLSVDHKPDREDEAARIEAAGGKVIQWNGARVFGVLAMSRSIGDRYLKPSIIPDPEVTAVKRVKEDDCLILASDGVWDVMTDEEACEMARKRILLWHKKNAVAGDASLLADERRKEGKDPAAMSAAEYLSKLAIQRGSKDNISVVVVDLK
| Substitution | relative binding score |
| --- | --- |
| E147S | 80% |
| V161R | -2.35% |
| I57T | 27.2% |
| E174S | 71.1% |
| E131L | 92.3% |
| N114I | 5.87% |
| V100P | -15% |
| T154Y | -9.29% |
| I172F | 67.5% |
| Q2L | 90.5% |
| R49A | 83.5% |
| R24N | 80.5% |
| L138A | 21% |
| L91H | -1.85% |
| E64T | 82.6% |
| T120H | 5.35% |
| N149E | 30.4% |

Sample 3
Target: RING finger protein unkempt homolog, zinc fingers 1-6, GST-SBP tag (UNK, Homo sapiens, UniProt Q9C0B0, residues 30-357)
Chain of UniProt Q9C0B0 (30-357, looked up): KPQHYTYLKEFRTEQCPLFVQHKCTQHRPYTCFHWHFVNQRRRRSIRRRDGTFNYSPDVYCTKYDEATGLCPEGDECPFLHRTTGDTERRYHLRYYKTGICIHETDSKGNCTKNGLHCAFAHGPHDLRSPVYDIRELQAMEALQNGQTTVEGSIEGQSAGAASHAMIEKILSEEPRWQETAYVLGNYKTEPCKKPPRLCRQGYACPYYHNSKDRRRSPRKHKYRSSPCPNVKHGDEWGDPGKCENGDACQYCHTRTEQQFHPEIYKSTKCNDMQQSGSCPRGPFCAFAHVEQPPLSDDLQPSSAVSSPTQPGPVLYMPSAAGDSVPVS
Technique: RNA Bind-n-Seq
Form: RNA
Matrix: in vitro
Concentration: not given
Notes: RNA with constant flanks, human-mouse chimeric sites, ends assumed
Baseline: input RNA pool
Reading: higher = stronger binding
Constant ends, left off below: GGGAGUUCUACAGUCCGACGAUC … CAACAGAGGAUUGAGCAUCA
| Oligonucleotide | bound/input enrichment [ratio] |
| --- | --- |
| GCUCCUCCCCGCUCUGCAGCCUGGGGACACUGGGCUGGGACCAGAAUCCAGCUUUCUUUUAAAACUCUCAGUGUAACUUCUUUUUCUGACAUUUCAUUUUUUUUAAAAGAAAAAAACUUU | 0.24 |
| AAUUUCCUGUCAUACUUUUUAGACAUUCACAUCAGACUUACAGAGCACCUGGCCACAUUCUAGGUUUGAAUUAUUUCUCAGCUAUGGAUAUGAUCAAAUGAGAACACUGGCAGCCAGAUG | 0.888 |
| GUGACAGGUGUUAAGAUUUCCCCUCAGCAAAGAAGUGCAGUAGUCACCAUAAUUCCAUCUGUGGUGAGUGCCAGUCAGAUUGUGGAGCUGGUCCCAGACCUCAGUUUAGACAUGGGAACU | 0.266 |
| UGGCGCCUGCGCUCCCCACUCGUGUUUUUAAGUGUAUUUUUAUAAGAUACAUGUAUUUACAAUUGAGUUUUUGAUUAAUAAUGCUGAAAUGCUACUGCAAUAUUAUGAAAAUGUUUCAAU | 0.0684 |
| CCCCAAUACCAUUUGCAGGUCUGGAACUGCACUCUCUUUUUUAAAAAAUAUGCAUAUAUUUUAGGGCUGUAGAUUUAUUUUCCUGGUUUUGUUUUUCAUUGCUGACUUUGAGCACAAGAA | 0.977 |
| AUGGAAAAGGAUUCUCUGCCCCGCUUUGUGCGCUCUGAAUUUUAUAAGGAGCUAAUCAAGUAGUAAUCUGGUCAGGCUUCCAAAAGUUGCCCUGUGAGUUGAGUUACAUCCUUUGUAGCA | 0.258 |
| AGGAGGAGGUUAAAGGGUGAGAGUGGGGUGGAAGACUGUGUCAUGGCUCUGGAGACACUGUUCAGUGUUCUGCUUUCUCUGUGCAGACUGAUGGCCCCUUACACGCCUUUUCUCACUGAG | 0.0774 |
| CGGAGCCCUCCUCUCCCCCAGGCCCGAGAUAUAACCCACCAGUGCCUUUUGUCUUCCUGUCAGCUCUGUCAAUCACGCCUGUCCUCUCACGCCCACACCAAGUGCCCCCACCCCUAAGGG | 0.574 |
| AAUUUCCUGUCAUACUUUGUAGCAAGACACAUCAGACUUACAGAGCACCUGGCCACAUUCUAGGUUUGUGUUAUUUCUCAGCUAUGGGGGUAUGAUUAUGAGAACACUGCUUAACUAAUG | 0.384 |
| GCAAAGGAUGAUGAGGCGGCAGCUGUUGCCCUUUCCUCUCUCGUUCAUGCUUUGGAUGACUUAGACAUGGUCGCCAUCGUCCGAUAUGCUUAUGACAAAAGAGCUAAUCCUCAAGUUGGU | 0.191 |
| UUAAUCCCCUUUACUGCUCCCCCACUUCUCAUGGUAAUAACAAAGUCUUAUAUUCCCGUCCUAGCUUUCACUCAGAUGGCUUAUGGAGCCGGUUUCCUAGCUUUCUUGGGUGGGAUCAGA | 0.493 |

Sample 4
Target: Interferon regulatory factor 3, full length, phosphomimetic (IRF3, Homo sapiens, UniProt Q14653, residues 1-427, S386D/S396D/S398D/S402D/T404D/S405D)
Chain of UniProt Q14653 (whole entry, unmodified, looked up): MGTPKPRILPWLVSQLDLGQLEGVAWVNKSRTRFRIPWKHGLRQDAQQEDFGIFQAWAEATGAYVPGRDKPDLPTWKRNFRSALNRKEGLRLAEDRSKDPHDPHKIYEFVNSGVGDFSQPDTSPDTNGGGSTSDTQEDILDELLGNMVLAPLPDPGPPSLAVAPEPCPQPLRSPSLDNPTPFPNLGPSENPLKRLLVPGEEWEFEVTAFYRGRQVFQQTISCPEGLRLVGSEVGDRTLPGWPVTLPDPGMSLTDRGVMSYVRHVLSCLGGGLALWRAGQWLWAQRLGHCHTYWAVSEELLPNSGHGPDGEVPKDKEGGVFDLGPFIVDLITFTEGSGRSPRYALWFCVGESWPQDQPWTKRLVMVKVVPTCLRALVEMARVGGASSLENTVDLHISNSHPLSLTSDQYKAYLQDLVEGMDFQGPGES
Technique: protein-binding microarray
Form: double-stranded DNA, one strand shown
Matrix: in vitro
Concentration: 2540 nM top
Notes: 60-bp whole probe
Together with: salmon DNA 0.4 mg/ml
Baseline: random background probes
Reading: higher = stronger binding
Constant ends, left off below: GCCTAGCAC … GTCTTGATTCGCTTGACGCTGCTG
| Oligonucleotide | fitted relative affinity |
| --- | --- |
| TCACCTCTACCTCCTGGGACTGTGCTA | 0.169 z-score |
| TGAGGTTTCCTTTTCCTTTAGTGCTAG | 11.9 z-score |
| TCAAGTGTGTGTCTGATACTGTGCTAG | -0.428 z-score |
| GACGATATCGGGACAGGAGACGTGCTA | 0.27 z-score |
| TTAGGACTGCTACTGCTTTTGTGCTAG | -0.732 z-score |
| AGACAAGCATTTGGTGATGCGTGCTAG | -0.704 z-score |
| GACGGTTTCGGGCCTGGGGACGTGCTA | 2.92 z-score |
| TCACCTATAGGTTTCTAACTGTGCTAG | 0.969 z-score |
| GACGGTATCCGTATCGGGACGTGCTAG | 4.34 z-score |
| TTAGAACTGAGTCTCGTTTAGTGCTAG | -0.265 z-score |
| ATTGTTTCCTTCCTCTTTTAGTGCTAG | 7.37 z-score |
| GCCGGTTTCGGTTTCGGGACGTGCTAG | 11.1 z-score |
| TTAGGTATCTGTTTCGGTTAGTGCTAG | 5.91 z-score |
| GACGAACTGGAGTATCGAGACGTGCTA | -0.217 z-score |
| TCACTCCTCTAGGTTCTCACTGTGCTA | 0.0424 z-score |
| GCACTTTTCCCCCTAGTTGTGTGCTAG | 2.14 z-score |
| GACGGTTTCCTCATCCTGACGTGCTAG | 4.41 z-score |
| TCAGATCTGCCGTCCCACACTGTGCTA | 0.482 z-score |
| GACAATATCAGACTGGAGACGTGCTAG | 0.283 z-score |
| TCACCTTGCATGTTTTTGACTGTGCTA | 0.341 z-score |
| GACGGTATCGCCTATCGGGACGTGCTA | 0.627 z-score |
| GACGGTTTCGACACTGAGGACGTGCTA | 3.3 z-score |
| GACGGTATCGCGTTTCGGGACGTGCTA | 1.65 z-score |
| GACGGTTTCGGCACTGGGGACGTGCTA | 2.87 z-score |
| TGAAGACTTTCTTTCAAATGGTGCTAG | 0.497 z-score |

Some of these lines once more (sample 4):
| Oligonucleotide | fitted relative affinity |
| --- | --- |
| GACGAACTGGAGTATCGAGACGTGCTA | -0.217 z-score |
| GACGGTATCCGTATCGGGACGTGCTAG | 4.34 z-score |
| GACGGTTTCGGGCCTGGGGACGTGCTA | 2.92 z-score |
| TCACCTCTACCTCCTGGGACTGTGCTA | 0.169 z-score |
| TCAGATCTGCCGTCCCACACTGTGCTA | 0.482 z-score |
| TTAGGTATCTGTTTCGGTTAGTGCTAG | 5.91 z-score |
| TGAAGACTTTCTTTCAAATGGTGCTAG | 0.497 z-score |
| GCACTTTTCCCCCTAGTTGTGTGCTAG | 2.14 z-score |
